Measured values collected from several papers.
Every numbered part comes from another study and shows a few of its results, in no order.

Set 1 — method: protein-binding microarray; form: double-stranded DNA, one strand shown; medium: in vitro; concentration: 2200 nM top; notes: 60-bp whole probe; together with: salmon DNA 0.4 mg/ml; reference: random background probes; direction: higher = stronger binding; constant ends, left off below: GCCTAGCAC … GTCTTGATTCGCTTGACGCTGCTG
Target: Interferon regulatory factor 7, full length, phosphomimetic (IRF7, Homo sapiens, UniProt Q92985, residues 1-503, S471D/S472D/S475D/S476D/S477D/S483D/S484D/S487D)
Chain of UniProt Q92985 (whole entry, unmodified, looked up): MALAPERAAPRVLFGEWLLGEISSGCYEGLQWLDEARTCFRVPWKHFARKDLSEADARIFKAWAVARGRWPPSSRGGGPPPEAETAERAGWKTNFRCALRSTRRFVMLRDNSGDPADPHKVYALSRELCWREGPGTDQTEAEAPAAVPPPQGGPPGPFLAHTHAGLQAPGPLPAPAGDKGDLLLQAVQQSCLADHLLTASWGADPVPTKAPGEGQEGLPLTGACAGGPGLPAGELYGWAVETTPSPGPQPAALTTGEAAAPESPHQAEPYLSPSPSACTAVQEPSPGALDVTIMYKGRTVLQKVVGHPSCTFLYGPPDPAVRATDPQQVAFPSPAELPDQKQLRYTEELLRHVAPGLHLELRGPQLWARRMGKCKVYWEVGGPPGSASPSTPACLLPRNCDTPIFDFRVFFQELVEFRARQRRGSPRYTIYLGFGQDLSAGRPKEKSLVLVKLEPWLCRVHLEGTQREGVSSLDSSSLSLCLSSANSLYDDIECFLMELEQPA
Oligonucleotide	fitted relative affinity [z-score]
GACGGACTGGACTTTCGGGGCGTGCTA	1.21
TTAGATTCCAGTTTCGATAAGTGCTAG	3.72
GACGATATCAGGTTCGAGACGTGCTAG	0.499
TAAGGTCTCCTTCTCCTTTAGTGCTAG	1.26
AAAATTTTAACCCTTATTCTGTGCTAG	-0.326
TTAGGACTGGGTTTCGGATAGTGCTAG	1.32
GACGGACTGGGGACTGGGGACGTGCTA	-0.822

Set 2 — method: protein-binding microarray; form: double-stranded DNA, one strand shown; medium: in vitro; concentration: not given; direction: higher = stronger binding
Target: Protein C-ets-1 (ETS1, Homo sapiens, UniProt P14921, residues 1-441, full length assumed)
Notes: k-mer, scored over probes, only values ≥0.25
Target sequence (chain): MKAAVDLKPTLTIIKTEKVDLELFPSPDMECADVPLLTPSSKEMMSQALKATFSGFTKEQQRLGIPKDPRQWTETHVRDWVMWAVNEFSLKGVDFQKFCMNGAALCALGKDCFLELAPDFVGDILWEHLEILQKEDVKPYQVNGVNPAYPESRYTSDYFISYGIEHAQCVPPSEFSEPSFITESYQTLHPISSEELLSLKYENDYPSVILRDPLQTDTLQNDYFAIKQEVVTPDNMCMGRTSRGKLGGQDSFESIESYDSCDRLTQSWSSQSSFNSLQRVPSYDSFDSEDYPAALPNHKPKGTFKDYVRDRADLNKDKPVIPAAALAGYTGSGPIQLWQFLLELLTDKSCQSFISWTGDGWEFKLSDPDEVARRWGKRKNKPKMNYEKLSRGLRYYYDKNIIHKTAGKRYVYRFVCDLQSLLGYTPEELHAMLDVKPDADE
Oligonucleotide	E-score
ATCAGGAT	0.287
CCGGACAC	0.427
CAAATCCG	0.316
ACTGGAAG	0.348
CACTTTCC	0.322
ATCCGGAA	0.473
AGCGTCCG	0.326
ATCCGCAG	0.291

Set 3 — method: protein binding microarray; form: double-stranded DNA, one strand shown; medium: in vitro; concentration: not given; reference: not given; direction: higher = stronger binding
Target: Histone acetyltransferase KAT6A, winged helix 2, GST fusion (KAT6A, Homo sapiens, UniProt Q92794, residues 85-181)
Notes: 8-mer, flanks averaged, mean of 2 arrays, mostly near background
Target sequence (chain): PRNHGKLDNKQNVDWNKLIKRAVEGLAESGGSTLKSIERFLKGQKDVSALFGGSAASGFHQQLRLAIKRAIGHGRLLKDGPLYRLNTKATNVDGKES
Oligonucleotide	E-score
CTGGGTCA	-0.0795
CCGAGCGG	0.168
AAACGTTA	-0.129
CCCAGAAG	0.0348
CGTTGCGA	0.00351
ACGCTAGG	-0.203
GATATCTA	-0.0605
GGAGCCGA	0.122
TATTCGAA	0.0168
GCCAATCC	0.048

Single results of other studies
Molecule	target	test	test system	setting	how to read	endpoint	value
PhoQ, residues 284 288 289 292 302 303 SSCLAV	PhoP, residues 12 14 15 18 19 AYFRS (Escherichia coli, UniProt P23836)	Sort-seq, item: YFP reporter	E. coli	PhoQ-PhoP variant library, together with: 10 µM Mg2+	reference: high Mg2+ state, higher = stronger signaling	fold induction	6.39
